Assay results gathered from unrelated publications.
Numbered parts are unrelated; each lists some results of a single study.
Chain of UniProt Q96PY6 (whole entry, looked up): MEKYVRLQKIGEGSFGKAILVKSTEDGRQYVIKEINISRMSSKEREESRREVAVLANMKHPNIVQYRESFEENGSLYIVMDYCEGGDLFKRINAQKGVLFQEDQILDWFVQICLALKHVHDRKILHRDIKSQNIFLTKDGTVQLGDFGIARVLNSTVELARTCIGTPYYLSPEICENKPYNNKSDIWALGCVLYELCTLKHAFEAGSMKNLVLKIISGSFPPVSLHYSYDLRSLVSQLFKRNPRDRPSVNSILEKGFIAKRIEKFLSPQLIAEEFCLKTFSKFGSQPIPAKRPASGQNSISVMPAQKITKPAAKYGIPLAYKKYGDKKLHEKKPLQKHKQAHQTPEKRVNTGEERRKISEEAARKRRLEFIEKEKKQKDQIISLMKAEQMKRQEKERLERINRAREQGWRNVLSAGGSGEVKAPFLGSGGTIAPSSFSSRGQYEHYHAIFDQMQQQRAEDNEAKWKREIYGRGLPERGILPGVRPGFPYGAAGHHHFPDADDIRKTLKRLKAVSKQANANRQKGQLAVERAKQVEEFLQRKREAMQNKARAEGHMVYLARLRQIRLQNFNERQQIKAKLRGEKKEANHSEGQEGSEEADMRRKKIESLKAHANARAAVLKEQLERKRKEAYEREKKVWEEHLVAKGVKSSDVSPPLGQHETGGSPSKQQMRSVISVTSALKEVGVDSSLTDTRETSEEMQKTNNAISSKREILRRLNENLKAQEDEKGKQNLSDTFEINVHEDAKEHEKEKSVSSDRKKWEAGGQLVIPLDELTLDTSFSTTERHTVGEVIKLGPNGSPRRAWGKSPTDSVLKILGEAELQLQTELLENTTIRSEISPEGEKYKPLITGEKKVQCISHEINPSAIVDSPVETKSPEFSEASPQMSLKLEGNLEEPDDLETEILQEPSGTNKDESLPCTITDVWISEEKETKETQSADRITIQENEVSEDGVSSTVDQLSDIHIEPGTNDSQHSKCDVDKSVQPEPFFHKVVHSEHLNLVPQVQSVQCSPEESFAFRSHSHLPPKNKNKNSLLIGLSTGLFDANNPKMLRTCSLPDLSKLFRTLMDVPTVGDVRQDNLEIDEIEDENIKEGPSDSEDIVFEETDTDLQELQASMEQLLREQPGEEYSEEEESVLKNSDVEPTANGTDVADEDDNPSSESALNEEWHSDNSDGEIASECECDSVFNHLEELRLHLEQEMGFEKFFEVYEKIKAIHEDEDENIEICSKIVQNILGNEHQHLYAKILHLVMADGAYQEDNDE
Chain of UniProt P36894 (whole entry, looked up): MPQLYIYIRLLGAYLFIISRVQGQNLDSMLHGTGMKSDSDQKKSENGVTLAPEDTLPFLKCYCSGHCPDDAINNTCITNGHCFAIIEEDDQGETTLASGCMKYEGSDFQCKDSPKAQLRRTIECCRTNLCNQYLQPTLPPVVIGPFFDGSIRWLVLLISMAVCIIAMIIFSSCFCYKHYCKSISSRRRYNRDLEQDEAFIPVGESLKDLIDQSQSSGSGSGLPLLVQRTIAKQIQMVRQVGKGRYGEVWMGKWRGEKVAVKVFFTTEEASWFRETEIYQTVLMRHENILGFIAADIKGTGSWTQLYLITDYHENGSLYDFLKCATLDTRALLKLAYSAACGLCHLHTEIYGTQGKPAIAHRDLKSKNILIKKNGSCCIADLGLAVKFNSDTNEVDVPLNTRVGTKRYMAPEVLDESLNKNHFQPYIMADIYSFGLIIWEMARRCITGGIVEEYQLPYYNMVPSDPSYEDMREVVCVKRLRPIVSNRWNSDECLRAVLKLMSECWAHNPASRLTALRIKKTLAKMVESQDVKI
Chain of UniProt Q9UL54 (whole entry, looked up): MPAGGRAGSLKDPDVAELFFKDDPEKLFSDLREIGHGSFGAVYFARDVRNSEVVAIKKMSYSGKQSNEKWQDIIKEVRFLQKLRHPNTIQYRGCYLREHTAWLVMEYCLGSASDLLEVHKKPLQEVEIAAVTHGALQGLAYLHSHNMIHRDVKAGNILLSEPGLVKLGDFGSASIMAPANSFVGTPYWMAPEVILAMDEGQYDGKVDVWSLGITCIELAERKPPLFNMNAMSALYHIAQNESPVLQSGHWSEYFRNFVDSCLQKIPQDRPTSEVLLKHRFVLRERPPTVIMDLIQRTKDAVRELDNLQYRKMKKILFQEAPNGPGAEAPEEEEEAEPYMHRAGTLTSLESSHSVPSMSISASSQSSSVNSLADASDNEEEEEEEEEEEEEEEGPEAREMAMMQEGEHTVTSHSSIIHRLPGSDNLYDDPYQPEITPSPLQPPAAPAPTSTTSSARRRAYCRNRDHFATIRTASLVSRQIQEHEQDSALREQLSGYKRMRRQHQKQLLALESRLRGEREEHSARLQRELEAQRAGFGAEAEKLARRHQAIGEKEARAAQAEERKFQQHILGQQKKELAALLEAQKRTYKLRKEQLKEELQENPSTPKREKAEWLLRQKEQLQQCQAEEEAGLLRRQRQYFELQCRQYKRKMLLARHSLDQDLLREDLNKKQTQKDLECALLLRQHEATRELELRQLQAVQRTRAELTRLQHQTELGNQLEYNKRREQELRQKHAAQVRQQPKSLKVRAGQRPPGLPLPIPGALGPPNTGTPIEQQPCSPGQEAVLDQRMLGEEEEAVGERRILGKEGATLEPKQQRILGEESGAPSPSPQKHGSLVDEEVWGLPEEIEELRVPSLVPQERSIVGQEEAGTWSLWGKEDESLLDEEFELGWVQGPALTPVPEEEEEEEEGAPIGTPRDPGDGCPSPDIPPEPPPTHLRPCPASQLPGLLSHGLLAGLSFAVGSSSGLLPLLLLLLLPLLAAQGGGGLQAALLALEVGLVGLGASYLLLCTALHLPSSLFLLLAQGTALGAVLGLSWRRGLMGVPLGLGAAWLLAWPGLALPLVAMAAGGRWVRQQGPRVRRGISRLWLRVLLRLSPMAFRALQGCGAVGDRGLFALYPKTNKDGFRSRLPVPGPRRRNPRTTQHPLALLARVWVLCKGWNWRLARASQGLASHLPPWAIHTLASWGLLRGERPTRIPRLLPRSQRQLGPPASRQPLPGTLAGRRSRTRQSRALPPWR
Chain of UniProt P36896 (whole entry, looked up): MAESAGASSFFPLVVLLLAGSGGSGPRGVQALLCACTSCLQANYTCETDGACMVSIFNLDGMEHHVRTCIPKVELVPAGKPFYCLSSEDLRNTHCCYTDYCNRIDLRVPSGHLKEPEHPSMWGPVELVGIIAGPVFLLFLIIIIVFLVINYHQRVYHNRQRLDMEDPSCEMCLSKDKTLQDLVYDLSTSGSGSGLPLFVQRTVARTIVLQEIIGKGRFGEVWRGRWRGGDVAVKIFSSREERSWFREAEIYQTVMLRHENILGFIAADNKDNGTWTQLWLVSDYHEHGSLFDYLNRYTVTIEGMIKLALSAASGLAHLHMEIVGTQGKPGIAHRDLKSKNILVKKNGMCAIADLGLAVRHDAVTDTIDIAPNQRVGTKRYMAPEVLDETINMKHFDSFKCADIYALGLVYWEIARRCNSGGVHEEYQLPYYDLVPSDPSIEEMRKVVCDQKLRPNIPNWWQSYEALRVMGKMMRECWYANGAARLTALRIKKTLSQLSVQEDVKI
Chain of UniProt P42679 (whole entry, looked up): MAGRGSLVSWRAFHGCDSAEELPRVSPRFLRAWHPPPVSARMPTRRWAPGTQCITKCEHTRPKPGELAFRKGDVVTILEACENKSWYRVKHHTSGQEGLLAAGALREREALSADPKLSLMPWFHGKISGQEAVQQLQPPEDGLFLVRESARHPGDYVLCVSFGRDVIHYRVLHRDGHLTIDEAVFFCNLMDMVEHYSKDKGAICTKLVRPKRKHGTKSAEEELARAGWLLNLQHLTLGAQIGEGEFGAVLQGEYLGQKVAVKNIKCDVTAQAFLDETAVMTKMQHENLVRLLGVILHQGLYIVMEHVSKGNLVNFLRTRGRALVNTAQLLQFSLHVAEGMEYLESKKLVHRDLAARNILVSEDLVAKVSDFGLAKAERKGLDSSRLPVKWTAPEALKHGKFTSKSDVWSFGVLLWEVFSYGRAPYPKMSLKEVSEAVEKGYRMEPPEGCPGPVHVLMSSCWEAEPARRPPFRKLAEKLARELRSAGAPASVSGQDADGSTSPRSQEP

Block 1
Target: Sal-like protein 4, full length isoform A (SALL4, Homo sapiens, UniProt Q9UJQ4, residues 1-1053)
Chain of UniProt Q9UJQ4 (whole entry, looked up): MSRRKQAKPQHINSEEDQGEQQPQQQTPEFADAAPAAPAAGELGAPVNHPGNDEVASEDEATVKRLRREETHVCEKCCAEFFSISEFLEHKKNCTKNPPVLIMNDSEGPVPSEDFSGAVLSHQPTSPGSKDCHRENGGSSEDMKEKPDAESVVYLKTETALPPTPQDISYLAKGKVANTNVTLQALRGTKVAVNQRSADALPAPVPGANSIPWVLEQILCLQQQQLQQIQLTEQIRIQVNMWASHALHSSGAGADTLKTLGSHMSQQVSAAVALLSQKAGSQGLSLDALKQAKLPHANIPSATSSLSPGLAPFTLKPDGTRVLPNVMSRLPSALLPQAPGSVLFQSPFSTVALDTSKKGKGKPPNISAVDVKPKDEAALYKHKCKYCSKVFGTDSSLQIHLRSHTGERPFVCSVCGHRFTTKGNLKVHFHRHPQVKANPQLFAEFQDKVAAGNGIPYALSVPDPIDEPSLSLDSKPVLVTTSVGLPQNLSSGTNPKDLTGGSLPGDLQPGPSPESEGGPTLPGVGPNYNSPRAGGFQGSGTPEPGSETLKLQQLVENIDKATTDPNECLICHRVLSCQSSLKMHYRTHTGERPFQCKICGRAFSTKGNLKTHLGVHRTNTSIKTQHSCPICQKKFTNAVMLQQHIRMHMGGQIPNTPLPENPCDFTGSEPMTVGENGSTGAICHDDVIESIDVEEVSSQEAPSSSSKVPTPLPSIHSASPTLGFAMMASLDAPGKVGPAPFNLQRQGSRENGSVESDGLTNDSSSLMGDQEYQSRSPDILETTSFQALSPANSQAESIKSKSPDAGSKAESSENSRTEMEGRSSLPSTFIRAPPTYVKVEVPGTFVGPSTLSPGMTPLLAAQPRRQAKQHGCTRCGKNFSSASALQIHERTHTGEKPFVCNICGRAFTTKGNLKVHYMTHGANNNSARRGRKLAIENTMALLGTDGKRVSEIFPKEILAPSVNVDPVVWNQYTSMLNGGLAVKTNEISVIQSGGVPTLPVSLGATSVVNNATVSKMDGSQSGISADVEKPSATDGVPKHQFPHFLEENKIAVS
Method: universal PBM
Form: double-stranded DNA, one strand shown
Sample: in vitro
Concentration: 600 nM
Notes: 8-mer, flanks averaged, mean of replicates
Direction: higher = stronger binding
With `AAAAAGTC` the E-score was 0.0884.
The E-score of `TCGCTCAA` is reported as -0.083.
The E-score of `ATTTAGGC` is reported as 0.0693.
For `ACCTTAGC`, the E-score was -0.041.
`AACTAATG` has an E-score of 0.237.
`GAGACAAC` gave an E-score of -0.144.
`AAAGTCTT` gave an E-score of 0.0972.
`TCGGGAGA` gave an E-score of -0.125.

Block 2
Target: Max dimerization protein 1, bHLH-zipper, MAX partner unstated (MXD1, Homo sapiens, UniProt Q05195, residues 56-136)
Method: protein-binding microarray
Form: double-stranded DNA, one strand shown
Sample: in vitro
Concentration: not given
Notes: k-mer, scored over probes, only values ≥0.25
Direction: higher = stronger binding
Construct (chain): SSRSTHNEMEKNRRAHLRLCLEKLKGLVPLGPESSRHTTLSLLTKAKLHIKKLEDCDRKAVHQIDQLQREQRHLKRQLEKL
For `TAACCACA`, the E-score was 0.252.
The E-score of `CCCACGCG` is reported as 0.445.
For `AAAACATG`, the E-score was 0.264.
`ACCCCTCC` has an E-score of 0.332.
The E-score of `AGTGCATG` is reported as 0.307.
For `GCACCCAC`, the E-score was 0.315.
With `CACGCATC` the E-score was 0.276.
`CTCGTGTC` gave an E-score of 0.327.

Block 3
SMILES: COc1ccc2c(c1)c(C1=C(c3c[nH]c4ccccc34)C(=O)NC1=O)cn2CCCN(C)C
Read-out: enzyme activity
Action: inhibitor
Concentration: 0.5 µM
Baseline: control
The remaining activity was 103% (MAP2K2 (Homo sapiens, UniProt P36507)).
The remaining activity was 80.8% (TAOK2 (Homo sapiens, UniProt Q9UL54)).
It gave 96.1% for remaining activity (ULK2 (Homo sapiens, UniProt Q8IYT8)).
The remaining activity was 91.3% (MST1R (Homo sapiens, UniProt Q04912)).
For MAP3K5 (Homo sapiens, UniProt Q99683): remaining activity read 95.1%.
The remaining activity was 79.2% (MAP3K14 (Homo sapiens, UniProt Q99558)).
For LCK (Homo sapiens, UniProt P06239): remaining activity read 93.6%.
It gave 138% for remaining activity (JAK3 (Homo sapiens, UniProt P52333)).
For EPHA3 (Homo sapiens, UniProt P29320): remaining activity read 94.1%.
MAPK3 (Homo sapiens, UniProt P27361) — remaining activity: 93%.
It gave 84% for remaining activity (MERTK (Homo sapiens, UniProt Q12866)).
The remaining activity was 94.7% (NEK1 (Homo sapiens, UniProt Q96PY6)).
The remaining activity was 111% (ACVR1B (Homo sapiens, UniProt P36896)).
The remaining activity was 32% (GSK3B (Homo sapiens, UniProt P49841)).

Block 4
Compound: COc1ccc2c(O[C@@H]3C[C@H]4C(=O)N[C@]5(C(=O)O)CC5/C=C\CCCCC[C@H](NC(=O)OC5CCCC5)C(=O)N4C3)cc(-c3csc(NC(=O)C(C)C)n3)nc2c1C (stereo partly shown)
Method: competition with immobilised ligand
Concentration: 1 µM
For Tyrosine-protein kinase ABL1, non-phosphorylated (ABL1, Homo sapiens, UniProt P00519, T315I); cell-free assay: remaining binding read 92%.
The remaining binding was 93% (MAP3K5 (Homo sapiens, UniProt Q99683); cell-free assay).
BMPR1A (Homo sapiens, UniProt P36894); binding — remaining binding: 100%.
MATK (Homo sapiens, UniProt P42679); cell-free assay — remaining binding: 50%.
It gave 99% for remaining binding (CDK11B (Homo sapiens, UniProt P21127); cell-free assay).
It gave 67% for remaining binding (MAP3K7 (Homo sapiens, UniProt O43318); cell-free assay).
CDK5 (Homo sapiens, UniProt Q00535); cell-free assay — remaining binding: 97%.

A few entries again (block 2):
For `TAACCACA`, the E-score was 0.252.
The E-score of `CCCACGCG` is reported as 0.445.
For `AAAACATG`, the E-score was 0.264.
`ACCCCTCC` has an E-score of 0.332.
